{"data": "Measurements pooled from the literature", "note": "Lines come from different studies, so protocols differ."}
{"Structure (SMILES)": "COc1ccnc(-c2cc(OC)ccn2)c1.[Co+2].[O-]c1c(I)cc(I)c2cccnc12.[O-]c1c(I)cc(I)c2cccnc12", "cell line": "BEL-7404", "assay": "cell growth or viability, MTT", "conditions": "48 h", "IC50": "19.5 µM"}
{"Structure (SMILES)": "COc1ccc(CNC[C@@](O)(COCc2ccc(F)cc2)[C@@H]2CC[C@@H](C)C[C@H]2OCc2ccc(F)cc2)cc1", "cell line": "A2780", "assay": "cell growth or viability, MTT", "conditions": "72 h", "IC50": "1.39 µM"}
{"Structure (SMILES)": "C=CC(=O)N1CCCC(n2c(=O)c3ncccc3n(Cc3ccc(Oc4ccccc4)cc3)c2=O)C1 (centres unmarked)", "cell line": "OCI-LY19", "assay": "cell growth or viability, MTT", "conditions": "72 h", "IC50": "0.15 µM"}
{"Structure (SMILES)": "CCN(C(=O)c1cc(F)ccc1Oc1nncnc1N1CCC2(C1)CN(C(CCCN(C)CCOC)C(C)C)C2)C(C)C (centres unmarked)", "cell line": "OCI-AML-3 (NPM1c)", "assay": "mRNA level, QuantiGene multiplex, measured: PBX3", "conditions": "concentration not given", "IC50": "> 2.82 µM"}
{"Structure (SMILES)": "NCc1ccc2c(c1)CN(C1CCC(=O)NC1=O)C2=O (centres unmarked)", "cell line": "JHH7", "assay": "cell growth or viability, ATP luminescence", "IC50": "0.207 µM"}
{"Structure (SMILES)": "[BH3-][P@+]1(c2ccccc2)CC[C@H](O)CC1", "cell line": "HaCaT", "assay": "cell growth or viability, MTT", "conditions": "72 h", "IC50": "> 100 µM"}
{"Structure (SMILES)": "CC(=O)[O][Pt]([NH2])([NH2])([Cl])([Cl])[O]C(=O)C(C)c1ccc(CC(C)C)cc1 (centres unmarked)", "cell line": "LoVo", "assay": "cell growth or viability, MTT", "conditions": "72 h", "IC50": "1.25 µM"}
{"Structure (SMILES)": "CNS(=O)(=O)Nc1nccc(Cc2c(C)c3ccc(Oc4ncccc4F)cc3oc2=O)c1F", "cell line": "COLO 704", "assay": "cell viability", "conditions": "7 days", "IC50": "> 1 µM"}
{"Structure (SMILES)": "COC(CC1C(C)=CCC2C1(C)CCC1C(C)(C)C(O)C(O)CC12C)C(N)C(=O)O (centres unmarked)", "cell line": "3T3 fibroblasts", "assay": "cell viability, CCK-8", "conditions": "72 h", "IC50": "> 10 µM"}
{"Structure (SMILES)": "Cn1ncc(-c2ccc3c(=O)[nH]nc(CN)c3c2)c1-c1c(F)c(Cl)cc(OC2CC2)c1C#N", "cell line": "NCI-H1437", "assay": "cell viability, inhibitor, CellTiter-Glo", "conditions": "120 h, baseline-subtracted", "IC50": "0.3 µM"}
{"Structure (SMILES)": "NC(=O)c1ccc(-c2ccccc2Cl)c2c3c([nH]c12)CCC(N)C3 (centres unmarked)", "cell line": "Pfeiffer", "assay": "cell growth or viability", "conditions": "96 h", "IC50": "0.0191 µM"}
{"Structure (SMILES)": "CN(C)C/C=C/C(=O)Nc1cc2c(Nc3ccc(F)c(Cl)c3)ncnc2cc1O[C@H]1CCOC1", "cell line": "BaF3", "assay": "cell growth or viability", "conditions": "72 h", "IC50": "3.3 µM"}
{"Structure (SMILES)": "CCOc1cncc(-c2ccc(NC(=O)C3(c4ccnc(NS(=O)(=O)C5CC5)n4)CCOCC3)nc2)n1", "cell line": "OVCAR-8", "assay": "cell proliferation, CellTiter-Glo", "conditions": "72 h", "IC50": "0.093 µM"}
{"Structure (SMILES)": "Cc1ccnc(-c2cc(C)ccn2)c1", "cell line": "BEL-7404", "assay": "cell growth or viability, MTT", "conditions": "48 h", "IC50": "> 50 µM"}
{"Structure (SMILES)": "CC(C)c1ccc(N(C)c2ccc3c(c2)OCC[C@H]3CNc2cnccc2C(=O)O)cc1", "cell line": "NCI-H1299", "assay": "cell viability, CellTiter-Glo", "conditions": "7 days", "IC50": "0.0075 µM"}
{"Structure (SMILES)": "CN1CCC(N[C@H]2CCc3[nH]c4c(C(N)=O)ccc(-c5ccccc5Cl)c4c3C2)CC1", "cell line": "Pfeiffer", "assay": "cell growth or viability", "IC50": "0.406 µM"}
{"Structure (SMILES)": "C[n+]1c(/C=C/c2ccc(N(c3ccccc3)c3ccccc3)cc2)cc(/C=C2\\Sc3ccccc3N2CCCN2CCCC2)c2ccccc21", "cell line": "16HBE", "assay": "cell growth or viability, MTT", "conditions": "36 h", "IC50": "15.6 µM"}
